Assay results gathered from unrelated publications.
Lines come from different studies, so protocols differ. Values joined by “and” are separate records of one study, mostly repeats; a detail may differ.

`CCCCCCCNC(=O)CP(=O)(O)O` gave an MIC of 100 µg/mL (Bacillus anthracis; Sterne 34F2).
`CCN(CC)CCCNC(=O)c1ccc(-c2nc(CN3CCc4ccccc43)c(C)o2)cc1` gave an efficacy of 127% (SARS-CoV-2; cytopathic effect; USA_WA1/2020; round 2, 5-point).
For `O=C(Nc1ncc(Cc2ccccc2)s1)c1ccccc1`, the MIC was greater than 20 µM (Histoplasma capsulatum; microbial growth).
`Oc1c(Cl)cc(Cl)cc1-c1[nH]c(Cl)c(Cl)c1Cl` has an MIC of 0.5 µM (Brucella anthropi; ATCC 49687).
`O=C(Nc1ncc(CC2CCCCC2)s1)C1CCCCC1` gave an MIC of 2.5 to 5 µM (Histoplasma capsulatum; microbial growth).
`Cc1cccc(Nc2nc(-c3ccccn3)cs2)n1` has an MIC of 0.78 to 1.6 µM (Mycobacterium tuberculosis; microbial growth, broth dilution; H37RV).
With `CCOc1ccc(NC(=O)c2cnn(-c3ccc(C)c(Cl)c3)c2C2CCNCC2)cc1` the AC50 was 14.1 µM (SARS-CoV-2; cytopathic effect, cell-based CPE; USA_WA1/2020).
`CC(C)(C)OC(=O)Nc1ncc(C(O)c2ccccc2)s1` (stereo not shown) has an MIC of greater than 20 µM (Histoplasma capsulatum; microbial growth).
The MIC of `Oc1c(Br)cc(Br)cc1-c1[nH]c(Br)c(Br)c1Br` is reported as 32 µM (Yersinia pseudotuberculosis; ATCC 6904).
Under “patients with adverse event”, `Cn1cnc(Cn2c(=O)[nH]/c(=N\c3cc4cn(C)nc4cc3Cl)n(Cc3cc(F)c(F)cc3F)c2=O)n1` is recorded as 0% (human, normal renal function; oral, 375 mg, treatment-related dry mouth, Moderate severity).
With `Cc1ncc([N+](=O)[O-])n1CCO` the MIC was 0.5 to 2 µg/mL (Clostridium perfringens).
For `CCCCCCCCCCCCCCCC(=O)C(F)(F)P(=O)(O)O`, the MIC was 200 µg/mL (Bacillus anthracis; microbial growth; STERNE34F2).
`O=C(O)c1cn(C2CC2)c2cc(N3CCNCC3)c(F)cc2c1=O` gave an MIC of 0.25 µM (Yersinia pseudotuberculosis; ATCC 6904).
`[O-][N+]1=C(c2ccc(Cl)cc2)C2=NCCN2c2ccccc21` gave an MIC of 0.25 to 1 µg/mL (Clostridium perfringens).
`O=C(CCCCCCCCCCOc1ccccc1)NP(=O)(O)O` has an MIC of greater than 200 µg/mL (Bacillus anthracis; microbial growth; STERNE34F2).
`O=C(Nc1nc(-c2ccccn2)cs1)c1ccc(Cl)cc1` gave an MIC of 0.39 to 0.78 µM (Mycobacterium tuberculosis; microbial growth, broth dilution; H37RV).
For `CCCCCC/C=C\CCCCCCCCCC(=O)CP(=O)(O)O`, the MIC was 0.05 µg/mL (Bacillus anthracis; microbial growth; STERNE34F2).
The MIC of `CN(C)[C@@H]1C(O)=C(C(N)=O)C(=O)[C@@]2(O)C(O)=C3C(=O)c4c(O)cccc4[C@@](C)(O)[C@H]3C[C@@H]12` is reported as 8 µg/mL (Xanthomonas oryzae).
With `Cc1ccccc1Nc1nc(-c2ccccn2)cs1` the MIC was 3.1 to 6.3 µM (Mycobacterium tuberculosis; microbial growth, broth dilution; H37RV).
`O=C(Nc1ncc(-c2ccccc2)s1)C1CCCCC1` gave an MIC of greater than 20 µM (Histoplasma capsulatum; microbial growth).
With `Cc1cccc(Nc2nc(-c3ccccn3)cs2)c1` the MIC was 6.3 to 12.5 µM (Mycobacterium tuberculosis; microbial growth, broth dilution; H37RV).
`O=C(Nc1ncc(Cc2cccc3ccccc23)s1)C12CC3CC(CC(C3)C1)C2` gave an MIC of greater than 20 µM (Histoplasma capsulatum; microbial growth).
For `CC[C@H](C)[C@H](NC(=O)[C@H](CC(C)C)NC(=O)[C@H](Cc1c[nH]c2ccccc12)NC(=O)[C@H](CCC(N)=O)NC(=O)[C@@H](NC(=O)[C@H](Cc1ccccc1)NC(=O)[C@H](C)NC(=O)[C@H](CCCCNC(=O)COCCOCCNC(=O)COCCOCCNC(=O)CC[C@H](NC(=O)CCCCCCCCCCCCCCCCCCC(=O)O)C(=O)O)NC(=O)[C@H](CCC(N)=O)NC(=O)[C@H](C)NC(=O)[C@@H](NC(=O)[C@H](CCCCN)NC(=O)[C@H](CC(=O)O)NC(=O)[C@H](CC(C)C)NC(=O)C(C)(C)NC(=O)[C@@H](NC(=O)[C@H](CO)NC(=O)[C@H](Cc1ccc(O)cc1)NC(=O)[C@H](CC(=O)O)NC(=O)[C@H](CO)NC(=O)[C@@H](NC(=O)[C@H](Cc1ccccc1)NC(=O)[C@@H](NC(=O)CNC(=O)[C@H](CCC(=O)O)NC(=O)C(C)(C)NC(=O)[C@@H](N)Cc1ccc(O)cc1)[C@@H](C)O)[C@@H](C)O)[C@@H](C)CC)[C@@H](C)CC)C(C)C)C(=O)N[C@@H](C)C(=O)NCC(=O)NCC(=O)N1CCC[C@H]1C(=O)N[C@@H](CO)C(=O)N[C@@H](CO)C(=O)NCC(=O)N[C@@H](C)C(=O)N1CCC[C@H]1C(=O)N1CCC[C@H]1C(=O)N1CCC[C@H]1C(=O)N[C@@H](CO)C(N)=O`, “subjects with hypoglycaemia” read 33.3% (item: blood glucose ≤70 mg/dL; healthy subjects; 0.5 mg, multiple ascending dose).
`O=C(Nc1nc(-c2ccccn2)cs1)C1CCCCC1` has an MIC of 1.6 to 3.1 µM (Mycobacterium tuberculosis; microbial growth, broth dilution; H37RV).
The inhibition of `Nc1ncnc2c([C@@H]3N[C@H](CO)[C@@H](O)[C@H]3O)c[nH]c12` is reported as 0% (Severe acute respiratory syndrome coronavirus; viral replication, inhibitor; Vero 76; 0.9 µM).
`Cc1ccc(Nc2nc(-c3ccccn3)cs2)cc1` has an MIC of 6.3 to 12.5 µM (Mycobacterium tuberculosis; microbial growth, broth dilution; H37RV).
`O=C(Nc1ncc(Cc2ccccc2)s1)c1cnc(-c2cccs2)s1` gave an MIC of greater than 20 µM (Histoplasma capsulatum; microbial growth).
`CNC(=O)[C@@H](NC(=O)[C@H](CC(C)C)[C@H](O)C(=O)NO)C(C)(C)C` gave a remaining activity of 96.4% and 93% and 97.5% (Daboia russelii venom proteases (SVMP); protease activity, inhibitor; MP population; 0.01 µM, together with: azocasein substrate; relative to: venom alone).

Some of these lines once more:
With `Cc1ccccc1Nc1nc(-c2ccccn2)cs1` the MIC was 3.1 to 6.3 µM (Mycobacterium tuberculosis; microbial growth, broth dilution; H37RV).
